Measured values pooled from the literature.
Parts stem from different laboratories: compare values within a part only.

Sample 1
Target: Prothrombin, mature alpha-thrombin (F2, Homo sapiens, UniProt P00734)
Method: aptamer microarray, sandwich
Form: DNA with 2'F-ANA
Medium: in vitro
Tested at: 200 nM
Notes: whole 15-mer aptamer, many near background
Added: Cy3 exosite-II aptamer, 400 nM
Direction: higher = stronger binding
Oligonucleotide: GGTTGGTGTGGTTGG
Modification	mean fluorescence intensity
2'F-ANA at 2 5 6 12 13 14	49.2 a.u.
2'F-ANA at 1 2 4 5 7 8 9 15	63.7 a.u.
2'F-ANA at 1 4 5 7 8 10 11 15	47.1 a.u.
2'F-ANA at 1 2 4 6 7 8 9 10 11	51 a.u.
2'F-ANA at 2 6 7 9 10 13	104 a.u.
2'F-ANA at 1 3 6 8 9 11 12 14	101 a.u.
2'F-ANA at 3 4 5 6 7 9 10 14	51 a.u.
2'F-ANA at 1 3 7 9 11 12 13 14 15	103 a.u.

Sample 2
Target: PABPC1L2, full length, GST fusion (mouse, UniProt A0ABA7IW68)
Method: RNAcompete
Form: RNA
Medium: in vitro
Tested at: 20 nM
Notes: 7-mer, probes averaged, single round
Baseline: mean of 7-mers
Direction: higher = stronger binding
Construct (chain): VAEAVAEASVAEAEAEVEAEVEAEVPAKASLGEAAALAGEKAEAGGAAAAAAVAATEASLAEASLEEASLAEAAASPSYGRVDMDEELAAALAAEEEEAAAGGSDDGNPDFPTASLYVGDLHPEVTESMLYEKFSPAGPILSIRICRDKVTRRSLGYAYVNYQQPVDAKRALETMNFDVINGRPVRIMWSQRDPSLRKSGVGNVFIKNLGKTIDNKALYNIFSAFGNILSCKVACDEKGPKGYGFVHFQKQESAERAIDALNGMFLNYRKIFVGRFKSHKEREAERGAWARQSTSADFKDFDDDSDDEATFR
Oligonucleotide	7-mer Z-score
AUCAAAC	0.247
CUGCAAA	0.35
AUGCAUC	-0.2
UAUCCGA	-0.206
UGCAGAC	-0.0826
GCUUAUC	-0.322
UAAAGAC	1.09
UCAAGGU	-0.124

Sample 3
Target: RNA binding protein fox-1 homolog 2, RRM domain, GST-SBP tag (RBFOX2, Homo sapiens, UniProt O43251-10, residues 100-194)
Method: RNA Bind-n-Seq
Form: RNA
Medium: in vitro
Tested at: 365 nM
Notes: natural RNA segment, single round, ends assumed
Baseline: no-protein control
Direction: higher = stronger binding
All sequences stand within: GGGAGUUCUACAGUCCGACGAUC … UGGAAUUCUCGGGUGCCAA
Oligonucleotide	RBNS enrichment (R)
UCAAAAUGGAAAGAUGGGAAUGUCUCAAAACAAAAUGAGCUUGGAGAUUACCAAGCAGUUUGCUGAAAAUUCAAUCUUUGACCCAAACUGUAGCAAUUUUUAUUUUCUGA	0.479
UUUGGAAAACAAAUACAUGCCUACUUUGUGCAUAUUUGCAUUAACAUGGCAAAGAUUGUAUGAAAUACCUGUUUUUCAGAAAAUAAAGGUUCAGUCUCAAAAGAUACAGC	0.364
AAAGCUAACUAAUUUGCUAAUCACUGAUUUUGCAAAGCUUGUUGUGGAGAUGUGGCUGGACAGGUUUGCCAUCAGAGUGGAUAUACCGUUGUAUUAAAAACAAGAUAAAA	0.431
GUUCCUUAGCUGCACCAGGCCCGAAGCUGUUCCCAUGCUUGAGCUUCCAUGGGGAGGAUGCUGAGUGAGCAGUUUCCUACCCCGUGGAUCUAGCAAGCCAUGGAGACAGG	0.601
UCUGAGUUUGAAUCCUUGCUCUCUAGGAUGCAGGUGGCUUGAAGCAGAAUGCCACACCUGCAAGUUGAUUAGAACUGCCUUUCUUCCCAGGCUUGACAUAGGUAUUAAGU	4.35
UGCUAAAAACUUUUGGCAACAAAAUUAAACUAAAACCAAAGUCAACAUGUGAAGUGUUUAUCAUAAGAUCCUCAGGAGUCAGUAUUGCAUGAUGCUCCCCUUAAUUGUCA	32.2
AAGGACCAGCACACUGGUGGCCAUUUUCUGCACAAGCAAAUGGAAUUGCUUUUUUUCAGCAUCCCAAUUGUUAUAGGUUGCUCCUGAUAGAGGUAGCCACAGUCCUGGAG	0.363
UUUUCCUUUAAGUUUGUUUUUAAAUGUAUUAGUCCAGGGGAUUUUGCCUUAUGCUGAGGUCAAACUAAGGAUAAGCAAGCUUUUGUCCUUCAUUUUAACUGUUAUGUCAU	3.13

Single results of other studies
Molecule	target	test	system	conditions	endpoint	value
YYNAFQWAI	HLA class I histocompatibility antigen, C alpha chain, allele C*04:01 (Homo sapiens, UniProt P10321)	peptide-MHC binding	peptide	concentration not given	binding	inactive
